Measured values pooled from the literature.
Parts stem from different laboratories: compare values within a part only.

Study 1
Target: Phosphate system positive regulatory protein PHO4, full length, GST-tagged (PHO4, Saccharomyces cerevisiae, UniProt P07270, residues 1-312)
Technique: competition protein-binding microarray
Molecule type: double-stranded DNA, one strand shown
Sample: in vitro
Tested at: 2 µM
Setting: whole 60-bp probe, lowest competitor level
Added: Cbf1 competitor, 0.05 µM
Reading: higher = stronger binding
Endpoint: fluorescence intensity
Construct (chain): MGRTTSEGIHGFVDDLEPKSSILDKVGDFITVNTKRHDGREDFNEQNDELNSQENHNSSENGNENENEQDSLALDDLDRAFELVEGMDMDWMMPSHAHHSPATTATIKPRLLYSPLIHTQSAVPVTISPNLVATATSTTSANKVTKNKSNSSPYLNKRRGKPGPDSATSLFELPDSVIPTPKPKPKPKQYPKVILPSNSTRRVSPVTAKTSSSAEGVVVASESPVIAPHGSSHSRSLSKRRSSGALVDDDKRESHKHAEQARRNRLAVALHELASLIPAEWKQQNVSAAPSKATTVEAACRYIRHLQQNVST
CTTTCCCGATCTTGACTGGTGGGTGTAGCACATTTGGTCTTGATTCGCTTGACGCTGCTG: 4640 a.u.
GAAGAAAATCGCTCCCGCGTGTCCACTGGACTTTGCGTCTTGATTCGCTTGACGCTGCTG: 8690 a.u.
TGCGTTTGGTAGTCGCGCGTGAATATGCTAATTGGGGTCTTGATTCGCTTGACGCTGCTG: 6150 a.u.
CGTCCTAGTGATTGCCTTGTGGGTGCCATGAGGAAGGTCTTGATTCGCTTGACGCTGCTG: 8740 a.u.
CGGGGTTAAGTTTGTCACATGACTTGCTTGCAGCAGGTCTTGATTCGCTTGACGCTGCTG: 6080 a.u.
TGTTTCACCTAAGCAAACGTGTGGACCACAACCAAAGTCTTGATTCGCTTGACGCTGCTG: 9670 a.u.
CATTCTGTGAACCATCACGTGGACCAATTATATTACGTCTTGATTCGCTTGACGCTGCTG: 18000 a.u.
CGTCCTAGTGATTGTCTAGTGGGTGCCATGAGGAAGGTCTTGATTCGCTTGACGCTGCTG: 6470 a.u.
GCTGGAAGATAGCTTCACGTGGAACATTCCTGACTGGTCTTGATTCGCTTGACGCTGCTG: 13800 a.u.
CTTCAGTCCTCAAGGGGCGTGCTTTTTGCTCTTGCTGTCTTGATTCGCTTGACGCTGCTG: 10100 a.u.
CCATCAATACTTTTATTCATGACAAGATGCATAGGTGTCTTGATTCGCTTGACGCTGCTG: 5590 a.u.
AGTAAAAGAGAAAAACACGTGTGGAGAACTTTTCATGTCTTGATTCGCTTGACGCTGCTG: 20700 a.u.
ATATACAAACTCCATCACGGGATCGATGTGGCTAAGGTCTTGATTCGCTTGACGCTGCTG: 6570 a.u.
TATTGGATGAGTATCCACATGGCTTGAACGCAAATGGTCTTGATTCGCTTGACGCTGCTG: 9020 a.u.

Study 2
Target: RING finger protein unkempt homolog, zinc fingers 1-6, GST-SBP tag (UNK, Homo sapiens, UniProt Q9C0B0, residues 30-357)
Sequence of UniProt Q9C0B0 (30-357, looked up): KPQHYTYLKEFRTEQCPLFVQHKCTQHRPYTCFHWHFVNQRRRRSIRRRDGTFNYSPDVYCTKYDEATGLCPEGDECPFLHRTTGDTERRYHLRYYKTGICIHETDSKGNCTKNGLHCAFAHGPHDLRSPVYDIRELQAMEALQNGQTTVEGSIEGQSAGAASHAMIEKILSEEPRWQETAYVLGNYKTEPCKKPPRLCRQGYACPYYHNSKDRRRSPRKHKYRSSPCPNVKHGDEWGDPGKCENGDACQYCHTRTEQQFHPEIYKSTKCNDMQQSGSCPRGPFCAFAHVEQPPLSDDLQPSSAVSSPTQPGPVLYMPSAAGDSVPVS
Technique: RNA Bind-n-Seq
Molecule type: RNA
Sample: in vitro
Tested at: not given
Setting: RNA with constant flanks, human-mouse chimeric sites, ends assumed
Baseline: input RNA pool
Reading: higher = stronger binding
Endpoint: bound/input enrichment
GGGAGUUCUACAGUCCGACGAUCGCAGGAUCUUCUAAGUACCAGUGGGACAUUAUGAAAUCCCUUGGCCUCUCUGAUGACGACAUAGUGAAGUUUUCUGAAGCAGAACAUUGGCUUGAUUAUUUCCCACCACUGGCCGUUCAGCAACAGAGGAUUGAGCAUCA: 0.262 ratio
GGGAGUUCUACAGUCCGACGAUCGAAACAUUUAAAUUUAAAGAAGCUGUUGUUCUAGGAAGUACGGACUUCCUAGAAGAUGAUAUAGAGAAAAUUGUAGAAGAACUGGGAAAAGAGUAUAAGGGCAACGCCUACCAUCUGAUGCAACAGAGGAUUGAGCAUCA: 1.3 ratio
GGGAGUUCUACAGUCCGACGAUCUCCCUGUUGCUGAAUAAAUGGCUUGUAAAGAAGUUUUUCCAAGCUGUAACCCAUGCUGUUAUUAUAGUUGCUGCAAAAUGUUCUUCCUGAUAUUGAUUUUAUUUGUUCUGACUCUCCCUCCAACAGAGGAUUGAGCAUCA: 1.32 ratio
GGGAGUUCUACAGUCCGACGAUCGAAACAUUUAAAUUUAAAGAAGCUGUUGUUCUAGGAAGUACGGACUUUCUAGAAGAUGAUAUAGAAAAAAUUGUAGAAGAACUGGGGAAAGAGUAUAAGGGCAACGCCUACCAUCUGAUGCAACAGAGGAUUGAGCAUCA: 1.83 ratio
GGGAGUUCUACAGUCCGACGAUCGCGGCAGAAUCAUGGAGGACAUAAUGCACUUGCCCAGAGCGCGCGUCAACGCCAGCAUGUUACCACAAUUCAUCGACCGGCCCGUGUGCUUCGUGGGGAAGCUGGAAAAGAUUCAUCCCACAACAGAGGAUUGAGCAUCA: 0.102 ratio
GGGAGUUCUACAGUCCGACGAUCGGGACUGAUUCAUCCCAAGGACAGGCCACCCCAUUUGAUGCCUGGACUGACGACAGUAUGGAAGGGCCUAGUCAAAAUGUUGAAGCUGAGUCAAUUCAGGAUGCCAUGAGUAUGGAAGAGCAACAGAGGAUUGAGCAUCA: 0.352 ratio
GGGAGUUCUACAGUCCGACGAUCCUGAGGAUACCACUGAAGAGACCUUAAAAGAAUCAUUUGAGGGCUCUCGUUCGGGCAGAAUAGUCACUGAUCGGGAAAACUGGGUCCCCAAAGGGUUUGGUUUUGUAGACUUUAAUAGUGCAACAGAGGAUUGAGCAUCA: 0.564 ratio

Study 3
Target: RNA binding protein fox-1 homolog 2, RRM domain, GST-SBP tag (RBFOX2, Homo sapiens, UniProt O43251-10, residues 100-194)
Technique: RNA Bind-n-Seq
Molecule type: RNA
Sample: in vitro
Tested at: 365 nM
Setting: natural RNA segment, single round, ends assumed
Baseline: no-protein control
Reading: higher = stronger binding
Endpoint: RBNS enrichment (R)
Residues (chain): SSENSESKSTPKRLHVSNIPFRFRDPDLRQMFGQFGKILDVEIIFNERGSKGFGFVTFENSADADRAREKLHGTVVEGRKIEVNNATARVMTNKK
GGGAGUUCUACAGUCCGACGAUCUAUUGGAUGUGAUGUUUCUUGCAUUCAUGUAAAUUGGAUGCAAUGUUUUCAAAUAAAUGUAGAUCUUGAGCAUGAUGUGUUCUGUAUAAUUUUAAUAGAUAAUAAUCAUAUGGAAUUCUCGGGUGCCAA: 2.22
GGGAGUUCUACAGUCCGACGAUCUAAAUGCUCCCUGCCUGGUGUGGGGAUGGGGUCCCCCUCUUUGUGAGGGCUGGAGCAUGGCACGGCAUGGAUUAACACGGCAGAGGAACAAAGGUGUGCUCUGAGCUUCUUGGAAUUCUCGGGUGCCAA: 2.66
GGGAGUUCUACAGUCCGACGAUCCCCCUCCAUAGGGUCUUGCUGCCAGGGACAGGGAUGCUUUCCAGCCUGCAGCAACAGAACACUUGACCUUAAAAGUCUCUUCUGGUCUUUGGAUUAGAAAAGGCUUAUGUUGGAAUUCUCGGGUGCCAA: 0.304
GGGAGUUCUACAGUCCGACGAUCAUAAUCACGCCACUGCACUCCAGCCUGGGCUGCAGGGUGAGGUCCUGUCUCUGGAAAAAAAAAAAAAAAAAAAAGGAAUAGGUAAAAGGGACAGAGGUGAAAUUUUGAGUUGGAAUUCUCGGGUGCCAA: 0.704
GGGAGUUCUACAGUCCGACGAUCGAAUCGAGGCUCCUUUGACCAUCAAAAUGAUGAACUUUACUUAUGUGGUACCCAAUGCCAGAAUGUAAGAGUUGCAAGUGAUUUUGUGCUGCUAUUCAUUAAAACUUGUAUGGAAUUCUCGGGUGCCAA: 0.948
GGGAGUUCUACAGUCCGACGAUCUCUCUGAUUUUUUUUUCCUCUCUUUUCAUUAUGCACUGGACAGCCACACACCGUGUACCCAUAGGGCCCCAAAUGUGGGGUCACAUGGUCUUGAAUUUUGUUGGUUACAUUGGAAUUCUCGGGUGCCAA: 1.39
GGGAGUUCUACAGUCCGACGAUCUCCCCUGCUAGAUGAUUCACCCACAAACCUUCCCACCCAGGUGUUCUCUGAAAGCUUAGCCUCAAGGGAACACCUAAAGAGCUCCCCUACAUAGACUCCUGCCUCCAGGUUGGAAUUCUCGGGUGCCAA: 1.04

Study 4
Target: Sal-like protein 4, full length isoform A (SALL4, Homo sapiens, UniProt Q9UJQ4, residues 1-1053)
Sequence of UniProt Q9UJQ4 (whole entry, looked up): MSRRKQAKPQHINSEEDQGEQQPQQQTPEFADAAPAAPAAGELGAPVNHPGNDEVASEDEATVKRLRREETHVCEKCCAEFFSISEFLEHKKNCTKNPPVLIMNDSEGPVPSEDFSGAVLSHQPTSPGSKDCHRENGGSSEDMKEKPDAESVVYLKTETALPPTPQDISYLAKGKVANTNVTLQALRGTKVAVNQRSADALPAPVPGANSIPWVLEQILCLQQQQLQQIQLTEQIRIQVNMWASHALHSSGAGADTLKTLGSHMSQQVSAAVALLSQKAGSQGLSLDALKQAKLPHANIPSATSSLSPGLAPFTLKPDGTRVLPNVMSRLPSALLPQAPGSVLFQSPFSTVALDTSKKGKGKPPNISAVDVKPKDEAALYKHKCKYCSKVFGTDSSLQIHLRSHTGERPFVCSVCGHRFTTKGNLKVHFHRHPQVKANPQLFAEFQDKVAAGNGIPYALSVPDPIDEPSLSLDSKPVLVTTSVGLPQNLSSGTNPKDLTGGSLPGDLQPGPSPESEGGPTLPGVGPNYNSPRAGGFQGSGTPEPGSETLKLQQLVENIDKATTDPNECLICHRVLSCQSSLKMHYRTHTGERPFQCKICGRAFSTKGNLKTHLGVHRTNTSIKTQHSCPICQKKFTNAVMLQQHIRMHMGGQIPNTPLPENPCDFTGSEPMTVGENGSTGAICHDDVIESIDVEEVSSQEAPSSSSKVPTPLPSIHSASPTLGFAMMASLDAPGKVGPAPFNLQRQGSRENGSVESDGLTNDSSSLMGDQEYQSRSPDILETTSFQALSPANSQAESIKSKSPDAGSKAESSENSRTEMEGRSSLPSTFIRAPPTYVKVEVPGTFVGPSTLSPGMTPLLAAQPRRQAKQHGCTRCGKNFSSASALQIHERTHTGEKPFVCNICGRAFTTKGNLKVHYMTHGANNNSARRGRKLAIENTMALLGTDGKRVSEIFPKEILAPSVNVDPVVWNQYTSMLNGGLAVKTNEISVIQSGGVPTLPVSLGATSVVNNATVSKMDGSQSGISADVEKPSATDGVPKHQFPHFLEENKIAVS
Technique: universal PBM
Molecule type: double-stranded DNA, one strand shown
Sample: in vitro
Tested at: 600 nM
Setting: 8-mer, flanks averaged, mean of replicates
Reading: higher = stronger binding
Endpoint: E-score
ACGTTTGC: -0.0786
ATCCTCCA: -0.00185
CGGCACAG: -0.18
CAATACTG: 0.164
AAACCGGT: -0.185
GCTTGTTA: 0.0768
CATTGTAC: 0.122
CGAACCAA: 0.0707
AATTACAA: 0.315
TCAGGGAA: -0.0163
GAATAGCC: -0.22
GCTTGACC: -0.263
CAAGACAA: 0.0908
ACCAAGTA: 0.0781
TAAACGCA: 0.202
CCAAAGGC: -0.194

A few entries again (study 4):
CAATACTG: 0.164
GCTTGTTA: 0.0768
CGGCACAG: -0.18
